Assay results pooled from the literature.
Lines come from different studies, so protocols differ. Several values in a cell are separate wells, animals, samples, runs or records. Numbers after ± are the reported error.

`N=C(N)NCCC[C@@H]1NC(=O)[C@H](CO)NC(=O)[C@@H](NC(=O)[C@H](CO)NC(=O)[C@H](CO)NC(=O)[C@H](Cc2c[nH]c3ccccc23)NC(=O)CNC(=O)[C@H](CO)NC(=O)[C@@H](N)Cc2c[nH]c3ccccc23)CSSC[C@@H](C(=O)NCC(=O)O)NC(=O)[C@H](CO)NC1=O` gave an AUC(0-80 min) of 378 ng·h/mL (patients, plasma; intravenous, 5 mg/kg, thrice weekly, mean).
The recovery of `C=CC(=O)Nc1cc(Nc2nccc(-c3c[nH]c4ccccc34)n2)c(OC)cc1N(C)CCN(C)C` is reported as 73.6% (storage stability; human dried blood spot; 10 d, on ice, MQC level).
`CC(C)C[C@@H]1NC(=O)[C@H](C(C)C)NC(=O)[C@H](Cc2c[nH]c3ccccc23)NC(=O)[C@@H]2CSSC[C@H](NC(=O)[C@H](Cc3ccc(O)cc3)NC(=O)[C@H](C(C)C)NC(=O)[C@H](CCCNC(=N)N)NC(=O)CNC(=O)[C@H]3CCCN3C1=O)C(=O)N[C@@H](CCC(N)=O)C(=O)N1CCC[C@H]1C(=O)NCC(=O)N[C@@H](Cc1c[nH]c3ccccc13)C(=O)N2` has a half-life of 10.6 h (chemical stability; simulated intestinal fluid; pH 6.5).
For `O=C(Nc1cnccc1-c1ccc([18F])cc1)c1ccnc(NC(=O)C2CC2)c1`, the SUV was 0.03 (mice, transgenic, GSK-3β, early-stage, thalamus; intravenous, dose not given, 120 min).
For `CC[C@H](C)[C@H](NC(=O)[C@@H](NC(=O)[C@H](CCCCN)NC(=O)[C@@H](NC(=O)[C@@H]1CCCN1[C@@H]1CN(C(=O)[C@@H](NC(=O)[C@@H](NC(=O)[C@@H](NC(=O)[C@@H](NC(=O)[C@@H](NC(=O)[C@@H](N)CCCCN)C(C)C)C(C)C)C(C)C)[C@@H](C)CC)[C@@H](C)O)CC[C@H]1NS(=O)(=O)c1ccc(C)cc1)[C@@H](C)O)C(C)C)C(=O)N[C@@H](CC(C)C)C(=O)N[C@@H](Cc1c[nH]cn1)C(N)=O`, “random coil content” read 56% (CD spectroscopy; 20 mM phosphate buffer; 125 µM, 37 °C).
For `C/C(N)=N/C(=N\S(=O)(=O)c1ccc(C(F)(F)F)cc1)N1C[C@H](c2ccccc2)C(c2ccc(Cl)cc2)=N1`, the half-life was 2.7 h (C57BL/6 mouse, heart; intravenous, 10 mg/kg).
For `CCCCN1C(=O)c2cccc3c(NCCN4CCOCC4)ccc(c23)C1=O`, “fluorescence quantum yield” read 0.22 (water; pH 6.0).
`CCCC[C@H](OC(C)=O)c1ccccc1C(=O)O` has an MRT(0-last) of 1.9 ± 0.5 h (beagle dog, both sexes, whole blood; intravenous, 5 mg/kg, single dose).
`COC1C=COC2(C)Oc3c(C)c(O)c4c(c3C2=O)C2=NC3(CCN(CC(C)C)CC3)NC2=C(NC(=O)C(C)=CC=CC(C)C(O)C(C)C(O)C(C)C(OC(=O)Nc2cscn2)C1C)C4=O` (centres unmarked): “elimination rate constant” 2.81e-05 s⁻¹ (CD-1 mouse female, plasma; intravenous, 5 mg/kg).
Under “fluorescence quantum yield”, `CCCCN1C(=O)c2cccc3c(NCCCCCCCCN4CCOCC4)ccc(c23)C1=O` is recorded as 1.09 (1,4-dioxane).
`CNc1cc(C)c(C(N)=O)cn1` has a hepatocyte CLint of < 1.2 µL/min/10⁶ cells (metabolic stability; male Wistar rat, hepatocytes; 1 µM, pH 7.4).
`Cl.NCc1ccc2c(c1)CN(C1CCC(=O)NC1=O)C2=O` (centres unmarked) has a remaining compound of < 1% (male cynomolgus monkey, whole blood; 3 h).
`CN(Cc1ccccc1)C(=O)CN1CCN(CC(=O)[O-])CCN(Cc2cccc(C(=O)[O-])n2)CC1.[18F-].[Sc+3]` gave a tracer uptake of 0.04 %ID/g (mouse, muscle; intravenous, 1 h).
`COc1ccc(Nc2nc(Nc3ccc(OCCOCCOCC[18F])cc3)ncc2Br)cc1` gave an uptake ratio of 0.67 (ICR mice, S180 tumour; intravenous, 370 kBq, 15 min; baseline: tumour over blood).
`CN([O-])C(=O)CN1CCN(CC(=O)N(C)[O-])CCN(CC(=O)N(C)[O-])CC1.[89Zr+4]` has an intact complex of 100% (radio-TLC; human serum; 2 days, run 1).
`CC(C)c1cnc(-c2cc(Cl)ccc2F)cc1Nc1ccncc1C(=O)NC(CO)CO` gave an unbound Cmax of 85.2 nM (female C57BL/6 mice, plasma; oral, 30 mg/kg twice daily, day 7, MC-38 tumour-bearing).
The tumour-to-muscle ratio of `COc1cccc(OC)c1-c1cc(C(=O)NC2(C(=O)O)C3CC4CC(C3)CC2C4)nn1-c1ccc(C(=O)N(C)CCCN(C)C(=O)[C@H](CCCCNC(=O)[C@H](CC(C)C)NC(=O)C2OC2C(=O)O)NC(=O)CN2CCN(CC(=O)[O-])CCN(CC(=O)[O-])CCN(CC(=O)[O-])CC2)cc1C(C)C.[177Lu+3]` (mixture of isomers) is reported as 20.7 (mouse, HT-29 xenograft; 24 h post injection, biodistribution; baseline: tumour over muscle uptake).
The tracer uptake of `COc1ccc2c(c1)C(C)(C)C(/C=C/C1=C(Oc3ccc(C(=O)NCCCCOc4cc(CN(Cc5ccccn5)Cc5ccccn5)cc(CN(Cc5ccccn5)Cc5ccccn5)c4)cc3)C(=C/C=C3/N(CCCCS(=O)(=O)[O-])c4ccc(OC)cc4C3(C)C)CCC1)=[N+]2CCCCS(=O)(=O)[O-].O=[N+]([O-])[O-].O=[N+]([O-])[O-].[99Tc+].[C-]#[O+].[C-]#[O+].[C-]#[O+].[Zn+2]` is reported as 1.66 %ID/g (mouse, stomach; 12 h).
`CN(Cc1ccccc1)C(=O)CN1CCN(CC(=O)[O-])CCN(CC(=O)[O-])CC1.[44Sc+3]` has a tracer uptake of 0.69 %ID/g (mouse, bone; intravenous, 1 h).
`COc1cccc(OC)c1-c1cc(C(=O)NC2(C(=O)O)C3CC4CC(C3)CC2C4)nn1-c1ccc(C(=O)N(C)CCCN(C)CCCN(C)C(=O)[C@H](CCCCNC(=O)[C@H](CC(C)C)NC(=O)C2OC2C(=O)O)NC(=O)CN2CCN(CC(=O)[O-])CCN(CC(=O)[O-])CCN(CC(=O)[O-])CC2)cc1C(C)C.[177Lu+3]` (mixture of isomers) has a renal retention of 31 ± 7% (HT-29 xenograft mouse, kidney; 168 h; baseline: initial uptake).
`Oc1ccc([C@@H]2Oc3ccc(O)cc3[C@@H]3CCC[C@@H]32)cc1` has a CL/F of 0.12 L/h (mouse, plasma; oral, 10 mg/kg).
The AUC(0-t) of `C=C(NC(=O)c1csc(-c2nc3c(cc2O)-c2nc(cs2)C(=O)NC(C(C)O)C(=O)NC(=C(C)OC)c2nc(cs2)C(=O)NC2c4nc(cs4)C(=O)NC(COC(=O)c4c5c6c(cccc6n4O)COC(=O)C(OC4CC(C)(O)C(N(C)C)C(C)O4)C2OC5)c2nc-3cs2)n1)C(N)=O` (centres unmarked) is reported as 1.01 µM·h (ICR mice, Streptococcus pneumoniae ATCC 49169 infected, immunocompromised, blood; intravenous, 16 mg/kg three times daily).
`CN(Cc1ccccc1)C(=O)CN1CCN(CC(=O)N(C)Cc2ccccc2)CCN(Cc2cccc(C(=O)[O-])n2)CC1.[44Sc+3]` gave a tracer uptake of 0.08 %ID/g (mouse, brain; intravenous, 1 h).
`Cc1cc(-c2ccc(C(=O)[C@@H]3CCCC[C@H]3C(=O)Nc3cnn4c3C(=O)NCC4)cc2)[nH]n1`: “radioactivity recovery per interval” 0.33% and 0.32% and 0.23% and 0.48% and 0.41% and 0.26% (human, urine; oral, 200 mg, 24-48 h; baseline: dose).
With `CN(Cc1ccccc1)C(=O)CN1CCN(CC(=O)[O-])CCN(CC(=O)N(C)Cc2ccccc2)CC1.[44Sc+3]` the tracer uptake was 0.42 %ID/g (mouse, bone; intravenous, 1 h).
`CC(=O)N([O-])CCCCCNC(=O)CCC(=O)N([O-])CCCCCNC(=O)CCC(=O)N([O-])CCCCCN.[89Zr+4]` has an intact complex of 100% (human plasma; 1 d, 37 °C).
`CC[C@H](C)/C=C/C=C/C=C/C(O)=C/C(=O)C(F)(F)Cl` has an MRT of 2.3 h (C57BL/6 mice, female, plasma; oral, 25 mg/kg).
`CC(C)(O)c1ccc(N2Cc3c(ccnc3-c3ccc(F)cc3OCC(F)(F)F)C2=O)cc1` gave a concentration of 123 ng/g (male C57BL/6 mouse, brain; oral, 1 mg/kg, 6 h).
Under “severe adverse events”, `CC[C@H](C)[C@@H]1NC(=O)[C@H](Cc2ccc(O)cc2)NC(=O)CCCSC[C@@H](C(=O)N(CC(=O)N[C@@H](CC(C)C)C(=O)NCC(N)=O)Cc2ccc(F)cc2)NC(=O)[C@H](CC(N)=O)NC(=O)[C@H](CCC(N)=O)NC1=O` is recorded as 0% (human; intranasal, 5 µg single dose).
`O=C(Nc1cnccc1-c1ccc([18F])nc1)c1ccnc(NC(=O)C2CC2)c1` gave an SUV of 0.121 (FVB/NJ mice (both sexes), spleen; intravenous, dose not given, 120 min).
`C=C[C@]1(C)C[C@@H](OC(=O)CSc2ccc(NC(=O)c3ccco3)cc2)[C@]2(C)[C@H](C)CC[C@]3(CCC(=O)[C@H]32)[C@@H](C)[C@@H]1O` has a CL/F of 64.5 mL/min/kg (chicken, Mycoplasmoides gallisepticum infected, plasma; intramuscular, 80 mg/kg).
With `N#C[C@@H]1CCCN1C(=O)CNC(=O)c1ccnc2ccc(OCCCN3CCN(C(=O)CCc4ccc5c(c4)CN4CCN(Cc6cc(CCC(=O)O)ccc6O)CC(=O)[O][Al-]([18F])([O]C(=O)C4)[O]5)CC3)cc12` (some centres unmarked) the radiochemical purity was 94.9 ± 1.1% (radio-TLC; CD-1 mice, plasma; intravenous, 10 min post-injection).
`O=C([O-])CN1CCN(CC(=O)[O-])CCN(CC(=O)[O-])CC1.[44Sc+3]` has an uptake of 195 ± 273 %ID/g (BALB/c mouse, urine; intravenous, 1 h).
`O=C(NC1(C(F)(F)F)CCC1)c1ccccc1` gave a logP of 2.48 (water; 24 h).
Under “large intestine uptake”, `C[N+](C)(CCOCCOCCOCCNC(=S)Nc1ccc(C[C@H]2CN(CC(=O)[O-])CCN(CC(=O)[O-])CCN2CC(=O)[O-])cc1)C[c-]1cccc1.[64Cu+2].[Fe+2].c1cc[cH-]c1` is recorded as 1.3 ± 0.6 %ID/g (nude mice, BxPC-3 xenograft, large intestine; 8 h, pretargeted, 216 h lag time).
For `Cc1nn(-c2nc3c(F)cc(F)cc3s2)c(O)c1C(c1ccc(C(F)(F)F)cc1)c1c(C)nn(-c2nc3c(F)cc(F)cc3s2)c1O`, “AUMC extrapolated observed” read 43.7% and 17.2% and 33.5% (ICR mouse, plasma; intraperitoneal, 10 mg/kg).
For `COc1cccc(OC)c1-c1cc(C(=O)NC2(C(=O)O)C3CC4CC(C3)CC2C4)nn1-c1ccc(C(=O)NCCNC(=O)[C@H](CCCCNC(=O)[C@H](CC(C)C)NC(=O)C2OC2C(=O)O)NC(=O)CN2CCN(CC(=O)[O-])CCN(CC(=O)[O-])CCN(CC(=O)[O-])CC2)cc1C(C)C.[177Lu+3]` (mixture of isomers), the tissue uptake was 0.78 %ID/g (mouse, HT-29 xenograft, liver; 72 h post injection).
`CC[C@H](C)[C@@H](C(=O)N[C@@H](CC(C)C)C(=O)N[C@@H](CO)C(=O)N[C@@H](CO)C(=O)N[C@H](C(=O)N[C@@H](CCC(=O)O)C(=O)N[C@H](C(=O)NCC(=O)N[C@@H](CO)C(=O)N[C@@H](CC(N)=O)C(=O)N[C@H](C(=O)N1C[C@H](O)C[C@H]1C(N)=O)[C@@H](C)O)C(C)C)[C@@H](C)O)N(C)C(=O)[C@H](C)NC(=O)CN(C)C(=O)[C@H](Cc1ccccc1)NC(=O)[C@H](CO)NC(=O)[C@H](CO)NC(=O)[C@H](CCCNC(=N)N)NC(=O)[C@H](CCC(N)=O)NC(=O)[C@H](CC(C)C)NC(=O)[C@H](Cc1ccccc1)NC(=O)[C@H](CCCC(=O)O)NC(=O)[C@H](C)NC(=O)[C@H](CC(C)C)NC(=O)[C@H](CCCNC(=N)N)NC(=O)[C@H](CCC(=O)O)NC(=O)[C@@H](NC(=O)[C@H](C)NC(=O)[C@@H]1CCCCNC(=O)C[C@H](NC(=O)[C@H](CCCNC(=N)N)NC(=O)CC[C@H](NC(=O)CCCCCCCCCCCCCCCCCCC(=O)O)C(=O)O)C(=O)NCC(=O)N[C@@H]([C@@H](C)O)C(=O)N[C@@H](C)C(=O)N[C@@H]([C@@H](C)O)C(=O)N1)[C@@H](C)O` — result for “main peak area remaining”: 98% (RP-HPLC; water; 1.0 mg/mL, 7 days, pH 6.0, 40 °C).
`O=C([O-])CN1CCN(CC(=O)[O-])CCN(Cc2cccc(C(=O)[O-])n2)CC1.[177Lu+3]` gave a tracer uptake of 0.18 %ID/g (mouse, muscle; intravenous, 1 h).
Under “procedure-related adverse events”, `CCC(C(=O)Nc1ccc(C(N)=O)c(F)c1)n1cc(OC)c(-c2cc(Cl)ccc2-n2cc(C(F)(F)F)nn2)cc1=O` (centres unmarked) is recorded as 7.1% (healthy male humans; 50 mg, required by protocol, together with: antacid).
With `CCC(CC)CNC(=N)NC(=N)NCCCCCCNC(=N)NC(=N)NCC(CC)CC` the scaled CLint was 50.3 mL/min/kg (metabolic stability; rat, hepatocytes; 1 µM).
